Measurements collected from several papers.
Every numbered part comes from another study and shows a few of its results, in no order.

Sample 1 — method: RNA Bind-n-Seq; molecule type: RNA; medium: in vitro; tested at: 365 nM; reference: no-protein control; reading: higher = stronger binding; quantity: RBNS enrichment (R)
Target: RNA binding protein fox-1 homolog 2, RRM domain, GST-SBP tag (RBFOX2, Homo sapiens, UniProt O43251-10, residues 100-194)
Notes: natural RNA segment, single round, ends assumed
All sequences stand within: GGGAGUUCUACAGUCCGACGAUC … UGGAAUUCUCGGGUGCCAA
Target sequence (chain): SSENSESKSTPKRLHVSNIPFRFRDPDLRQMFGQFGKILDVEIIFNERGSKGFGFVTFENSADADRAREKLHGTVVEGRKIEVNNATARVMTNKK
CUCAACCCCUGCAACCUUCCCUAGCCCCCUCAAUAGAUGAGCAGGUCAGGCUGUGGCCCUUACCUCACCCGCAGUUCUCGCCCAGUGCUGCAGCCGGCUCACCUCUCUCC: 0.784
AUUUAUGCACAUACUUAAAGGACAGAAAUGUCUGGGAAAGUAAUUGUUAAAUAAUGAUAUGUAACUUUUUAACUUUUUAAAUAAAUAACAAGAUUUUUAAUGUGUGUCUC: 0.477
GCAGCCUCCCCAUACUCUGCUCCUGAUGUGGCAACCCUUGUCGGCUCCUGCCUUUGCCCCCCACUUUAAUCUAAGCACUGGGCCAUGAAAUCUGACACUAAGGUACCCUG: 0.521
UUUCCUGCCUUACACAGAGCAGUAGCAUACCAUCCCUCUGGAGGGUAGGGGACCCCUGCGGUUCCAGCCUCUUAGCCUUGGUUUGUUGGUCACAUAGCACUGUUAAAUUU: 0.224
GUUUCUAGUUCCUGGCUCUUGAGGGGCUUGGUCCUGCCUGCUCUAUGGAAGGGGCCAAGAGGAGCUGCAAGGCAGCCCGGUUAGUGUUCGGGUGAAAUGGCAAGUUGUAC: 0.439
ACCCACUUCAGCUGGCUUUGGGGAAAGGGGCAUCAAAUUCAGCCUGCCCCAAGGUUGUCAGAGUCAAGUCUGGGAGCAGAAAAGGGGUGAGUUUUCACAUCCCUGCAUCU: 0.252
UCUGUUUGUCUCGUGGGGGGAGGUGGACAGUCCUGCGGAAAUGUGUCUUGUCUCCAUUUGGAUAAAAGGAACCAACCAACAAACAAUGCCAUCACUGGAAUUUCCCACCG: 1.93
CCCUCCUCUCCACCAUCGUCUUCUUGGCCAUGGGAGGCCUUUCCCUAAGCCAGCUGCCCCCAGAGCCACAGUUCCCCUAUGUGGAAGUGGGGCGGGCUUCAUAGAGACUU: 0.425
UCCACUCUCCUCCUCUUUUUGAUACCCACCCUCACUAGCUGCCUCCAGCUCUGGAGUGGGGUGCUAUUCUGGCAGUAUCUGGAACUUGGCCUACAGCUUCCUCUGCAGGG: 0.387
UUCUAUUUCUUCUUAGUUAUUAUGUGCCACCUUCUUAGUUAUUAUGUGCCACCUCCCCUAUGAGUGACGUGUUUGAUCACUAGCAGAAUAGCAAGCAGAGUAUCAUUCAU: 0.776
UGUAGGGAGUUGUGGGUAGUGGGGAAGAGGGUUAGGAGGGUUUCAUUGUCUGUGAAGUGAGACCUUCCUUUUACUUUUCUUCUAUUGCCUCUGAGAGCAUCAGGCCUAGA: 1.54
UGCCUGCCCCCUCCCAGCAGCCAGCCCUGCCAAAGUUGCAUUAUCUUUGGCCAAGGCUGGGCCUGACGGUUAUGAUUUCAGCCCUGGGCCUGCAGGAGAGGCUGAGACCA: 6.19

Sample 2 — method: aptamer microarray, sandwich; molecule type: DNA with 2'F-ANA; medium: in vitro; tested at: 200 nM; with: Cy3 exosite-II aptamer, 400 nM; reading: higher = stronger binding; quantity: mean fluorescence intensity; sequence: GGTTGGTGTGGTTGG
Target: Prothrombin, mature alpha-thrombin (F2, Homo sapiens, UniProt P00734)
Notes: whole 15-mer aptamer, many near background
2'F-ANA at 1 2 3 4 5 9 11 12 13: 77.8 a.u.
2'F-ANA at 1 2 3 5 12 14: 46.3 a.u.
2'F-ANA at 1 6 7 8 13 14 15: 58.4 a.u.
2'F-ANA at 2 4 5 7 9 11 12 14: 45.5 a.u.
2'F-ANA at 4 5 6 7 8 9 10 11 12 13: 47.7 a.u.
2'F-ANA at 2 4 7 9 10 11 12 14: 66.8 a.u.
2'F-ANA at 2 4 8 12 13 14 15: 124 a.u.
2'F-ANA at 3 6 9 11 14: 460 a.u.
2'F-ANA at 1 2 3 4 8 9 10: 61.6 a.u.
2'F-ANA at 1 3 5 6 7 8 9 10 11 13: 50 a.u.
2'F-ANA at 1 2 3 4 6 10 11 13 15: 54.8 a.u.
2'F-ANA at 3 4 5 7 8 9 10 11 12 13 14: 48.8 a.u.
2'F-ANA at 2 3 4 5 6 9 10 11 12 14: 49.6 a.u.
2'F-ANA at 4 5 6 8 12 14: 52.5 a.u.
2'F-ANA at 3 6 8 9 11 12 13: 1080 a.u.
2'F-ANA at 1 3 8 15: 426 a.u.

Sample 3 — method: protein-binding microarray; molecule type: double-stranded DNA, one strand shown; medium: in vitro; tested at: 2540 nM top; notes: 60-bp whole probe; with: salmon DNA 0.4 mg/ml; reference: random background probes; reading: higher = stronger binding; quantity: fitted relative affinity; all sequences stand within: GCCTAGCAC … GTCTTGATTCGCTTGACGCTGCTG
Target: Interferon regulatory factor 3, full length, phosphomimetic (IRF3, Homo sapiens, UniProt Q14653, residues 1-427, S386D/S396D/S398D/S402D/T404D/S405D)
Chain of UniProt Q14653 (whole entry, unmodified, looked up): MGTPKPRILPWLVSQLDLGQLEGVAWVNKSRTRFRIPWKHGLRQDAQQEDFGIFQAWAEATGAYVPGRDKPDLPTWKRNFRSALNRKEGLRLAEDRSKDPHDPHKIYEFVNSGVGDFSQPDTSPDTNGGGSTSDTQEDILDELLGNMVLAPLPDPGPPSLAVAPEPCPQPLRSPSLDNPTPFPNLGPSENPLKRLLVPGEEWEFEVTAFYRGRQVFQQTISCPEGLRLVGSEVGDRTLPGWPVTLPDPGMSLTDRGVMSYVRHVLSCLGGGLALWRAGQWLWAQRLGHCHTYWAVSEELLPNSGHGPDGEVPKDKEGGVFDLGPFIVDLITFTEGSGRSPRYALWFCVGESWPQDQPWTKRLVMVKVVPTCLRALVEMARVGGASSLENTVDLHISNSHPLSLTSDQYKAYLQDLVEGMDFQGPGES
GACGGACTGGGCTTCGGGACGTGCTAG: -0.921 z-score
TCAATTTTAGTTTTCATACTGTGCTAG: 3.35 z-score
TACGGACTGGGGTATCGGGACGTGCTA: -0.565 z-score
TTAGGTATAGGGTATCGGTTAGTGCTA: 0.147 z-score
TTAGGTCTCGGTTTCGGTAAGTGCTAG: 4.53 z-score
GACGGATTCGGGTTTCGGGACGTGCTA: 2.26 z-score
GACGGTATCGGTTTCGGGACGTGCTAG: 7.29 z-score
GACGGACTGGGTCTCGGGAGGTGCTAG: -0.907 z-score
TTGGTTCTGATCCTTCCCCTCGTGCTA: 0.542 z-score
CTAGGTTTCGGTCTCGGTTAGTGCTAG: 8.28 z-score
TTAGGTTTCCTTCTACTTTAGTGCTAG: 7.88 z-score
GACGGCATCGGTTTCGGGACGTGCTAG: 2.56 z-score
TCAGCTTTTTTTCCGAGACTGTGCTAG: 0.681 z-score
TTAGGTTTCCTATTCCTTTAGTGCTAG: 7.28 z-score
TTCGATTTCAGTTTCGATTAGTGCTAG: 5.62 z-score
GCCGGTTTCCTTCTCCTGACGTGCTAG: 10.2 z-score
GACGATTCCAGTTTCGAGTCGTGCTAG: 3.72 z-score
CTCCCCCTCAGATCTGCCGTCGTGCTA: 0.136 z-score
TTAGATTTCAGACTGGATAAGTGCTAG: 0.781 z-score
GACGGCCTGCTTCTCCTGACGTGCTAG: -0.57 z-score
GACGGTTCCCCTTTCCTGACGTGCTAG: 4.31 z-score
GACGGTATCCAACTGCTGACGTGCTAG: 1.96 z-score
TTAGGTTTCGACTTTTGGTTAGTGCTA: 2.95 z-score
GACGGTTTCGACTTTCTGGACGTGCTA: 3.94 z-score
GCGATTTGAGGAGCTCGCTCGTGCTAG: -0.426 z-score

Sample 4 — method: protein binding microarray; molecule type: double-stranded DNA, one strand shown; medium: in vitro; tested at: not given; reference: not given; reading: higher = stronger binding; quantity: E-score
Target: Histone acetyltransferase KAT6A, winged helix 2, GST fusion (KAT6A, Homo sapiens, UniProt Q92794, residues 85-181)
Notes: 8-mer, flanks averaged, mean of 2 arrays, mostly near background
Construct (chain): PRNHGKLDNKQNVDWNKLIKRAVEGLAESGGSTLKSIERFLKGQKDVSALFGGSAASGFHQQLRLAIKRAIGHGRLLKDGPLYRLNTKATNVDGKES
AAGAATTG: 0.0177
ACCGCATG: 0.0675
AGCTCAAC: -0.126
AGGAGCTC: -0.102
ACCGAGGC: -0.119
AATCATCA: -0.00214
AAACATAC: -0.207
ATTCCCAG: -0.0242
AGAGGCAC: 0.0253
GGCCTGGA: -0.0969
ACCAGAAG: -0.147
AAGCCGCC: 0.153
CCGTATAG: 0.0644
CGAGCTTA: 0.01
CATTTGTA: 0.111
ACGAGTAA: 0.0125
CACCAACC: 0.0928
CGAAGTCG: -0.02
TCACCCGA: 0.0894
ACGGGAGT: 0.0593
GATAGCAC: 0.00442

A few entries again (sample 2):
2'F-ANA at 4 5 6 7 8 9 10 11 12 13: 47.7 a.u.
2'F-ANA at 3 6 8 9 11 12 13: 1080 a.u.
2'F-ANA at 2 3 4 5 6 9 10 11 12 14: 49.6 a.u.
2'F-ANA at 1 2 3 4 5 9 11 12 13: 77.8 a.u.
2'F-ANA at 4 5 6 8 12 14: 52.5 a.u.
2'F-ANA at 3 4 5 7 8 9 10 11 12 13 14: 48.8 a.u.
2'F-ANA at 3 6 9 11 14: 460 a.u.
2'F-ANA at 1 3 8 15: 426 a.u.
2'F-ANA at 1 2 3 4 8 9 10: 61.6 a.u.
2'F-ANA at 1 3 5 6 7 8 9 10 11 13: 50 a.u.
2'F-ANA at 1 2 3 5 12 14: 46.3 a.u.
